# Measured values gathered from unrelated publications.
# ± marks the error that the study gave.
Structure (SMILES),tested on,test,test system,setting,measurement,result
CCCCN1C[C@H](O)[C@@H](O)[C@@H](O)[C@H]1CO,sample D patient fibroblasts,"Gb3 level lowering, LC-MS/MS, refers to: Gb3 d18:1/22:0",,216 h,IC50,11.5 µM
C=CC(=O)c1cccnc1Nc1cc(C(F)(F)F)ccc1OCc1ccccc1,HEK293A LATS1/2 double knockout,"TEAD reporter gene, GTIIC luciferase",,24 h,IC50,60.8 µM
C[C@@H](Oc1cc(-c2cnn(C3CCNCC3)c2)cnc1N)c1c(Cl)ccc(F)c1Cl,Rh36 (embryonal rhabdomyosarcoma),cell growth,,3 days,IC50,0.82 ± 0.12 µM
CCCCN1C[C@H](O)[C@@H](O)[C@H](O)[C@H]1CO,Sandhoff fibroblasts,"lysosomal accumulation, LysoTracker staining",,8 days,IC50,6 µM
C[C@H]1O[C@@H](n2cc(F)c(=O)[nH]c2=O)[C@H](O)[C@@H]1O,7702 normal human cells,"cell growth, CCK-8",,48 h,IC50,> 50 µM
COc1cc(N2CCC(N3CCN(C)CC3)CC2)ccc1Nc1ncc(Cl)c(Nc2ccccc2P(C)(C)=O)n1,Ba/F3 EML4-ALK v1,cell viability,,,IC50,0.109 µM
N#Cc1ccc(C[C@@H](NC(=O)c2cc3cc(F)ccc3[nH]2)C(=O)N2CCc3ccccc32)cc1,human neutrophils,"calcium mobilization, desensitization",,added: standard agonist,IC50,> 50 µM
COCCOC(=O)C1=C(C)NC(C)=C(C(=O)OC/C=C/c2ccccc2)C1c1cccc([N+](=O)[O-])c1 (stereo not shown),Toxoplasma gondii,parasite growth,"HFF, bradyzoite, alkaline-induced",,EC50,7.51 µM
NC(=O)NOCCCCCCCCCCCCCCCCCCCC[P+](c1ccccc1)(c1ccccc1)c1ccccc1,mouse myeloid-derived suppressor cells,"suppressive neutrophil differentiation, flow cytometry",,,IC50,> 1 µM
N#Cc1ccc(C[C@@H](Nc2c(Nc3ccc(Br)cc3)c(=O)c2=O)C(=O)N2CCc3ccccc32)cc1,human neutrophils,"calcium mobilization, desensitization",,added: standard agonist,IC50,> 50 µM
CC1(C)COc2ccc(F)cc2CN2c3nc4c(cnn4cc3OC[C@H]2C(F)F)C(=O)N1,Ba/F3 EML4-ALK variant 1 S1206Y,cell viability,,,IC50,0.0144 µM
OC(CCN1CCCCC1)(c1ccccc1)C1CC2C=CC1C2 (stereo not shown),Toxoplasma gondii,parasite growth,"HFF, bradyzoite, alkaline-induced",,EC50,307 µM
Cc1c(C(=O)O)ccc2c3n(nc12)[C@@H]1[C@H](C3)N(CC2CC2)[C@@]2(C(=O)Nc3cc(Cl)ccc32)[C@H]1c1cccc(Cl)c1F,highly sensitive cancer cell lines,"cell viability, PRISM pooled screen",,"median, sensitivity above 0.5",IC50,0.107 µM

# Some of these lines once more:
Structure (SMILES),tested on,test,test system,setting,measurement,result
COCCOC(=O)C1=C(C)NC(C)=C(C(=O)OC/C=C/c2ccccc2)C1c1cccc([N+](=O)[O-])c1 (stereo not shown),Toxoplasma gondii,parasite growth,"HFF, bradyzoite, alkaline-induced",,EC50,7.51 µM
